Results gathered from unrelated publications.
Numbered parts are unrelated; each lists some results of a single study.

Block 1 — organism: Vesicular stomatitis virus; effect on: pseudovirus infection; method: FDA-approved drug library screen; tested at: concentration not given; notes: SARS-CoV-2 spike pseudotype; relative to: vehicle; endpoint: GFP-positive cells
SMILES = CN(C)CCOC(c1ccc(Cl)cc1)c1ccccn1.O=C(O)/C=C\C(=O)O (stereo not shown); result = 79%
SMILES = C=CCN1CC[C@]23c4c5ccc(O)c4O[C@H]2[C@@H](OCCOCCOCCOCCOCCOCCOCCOC)CC[C@@]3(O)[C@H]1C5.O=C(O)C(=O)O; result = 85.9%
SMILES = Cl.NC(N)=NCCC[C@H](N)C(=O)O; result = 81.7%

Block 2 — method: protein-binding microarray; molecule type: double-stranded DNA, one strand shown; matrix: in vitro; tested at: 2540 nM top; notes: 60-bp whole probe; together with: salmon DNA 0.4 mg/ml; relative to: random background probes; direction: higher = stronger binding; endpoint: fitted relative affinity; constant ends, left off below: GCCTAGCAC … GTCTTGATTCGCTTGACGCTGCTG
Target: Interferon regulatory factor 3, full length, phosphomimetic (IRF3, Homo sapiens, UniProt Q14653, residues 1-427, S386D/S396D/S398D/S402D/T404D/S405D)
Construct (chain): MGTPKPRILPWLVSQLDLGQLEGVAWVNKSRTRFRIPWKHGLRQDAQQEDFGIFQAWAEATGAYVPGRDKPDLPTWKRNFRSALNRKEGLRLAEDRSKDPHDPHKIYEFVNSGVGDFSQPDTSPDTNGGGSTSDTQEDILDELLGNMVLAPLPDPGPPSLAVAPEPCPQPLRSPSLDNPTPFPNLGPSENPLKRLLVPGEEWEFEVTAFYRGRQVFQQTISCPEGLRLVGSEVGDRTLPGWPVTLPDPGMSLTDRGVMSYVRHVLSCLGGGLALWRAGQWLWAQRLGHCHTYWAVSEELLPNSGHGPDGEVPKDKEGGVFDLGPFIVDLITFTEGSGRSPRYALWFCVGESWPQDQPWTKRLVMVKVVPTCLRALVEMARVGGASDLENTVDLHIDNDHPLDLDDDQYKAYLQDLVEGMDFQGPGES
Sequence = TTAGGTGTCGACTATCGGTTAGTGCTA; result = 0.921 z-score
Sequence = TTAGATATCAGGTTTCGATTAGTGCTA; result = 2.91 z-score
Sequence = TCAGGTTCAGATATAGGACTGTGCTAG; result = 0.555 z-score
Sequence = TCCTCTTTTTTGTTCCACGCGTGCTAG; result = 1.87 z-score
Sequence = GACGGTTTCCTTTCCCTCACGTGCTAG; result = 10 z-score
Sequence = TTAGGTTTCCTTTTCCATTAGTGCTAG; result = 11.2 z-score
Sequence = TCACATTGCTGCCCTCAGACTGTGCTA; result = 0.03 z-score
Sequence = TTATGTATCCTTATCCTTTAGTGCTAG; result = 5.4 z-score

Block 3 — method: competition protein-binding microarray; molecule type: double-stranded DNA, one strand shown; matrix: in vitro; tested at: 2 µM; together with: Cbf1 competitor, 0.05 µM; direction: higher = stronger binding; endpoint: fluorescence intensity; constant ends, left off below: … GTCTTGATTCGCTTGACGCTGCTG
Target: Phosphate system positive regulatory protein PHO4, full length, GST-tagged (PHO4, Saccharomyces cerevisiae, UniProt P07270, residues 1-312)
Notes: whole 60-bp probe, lowest competitor level
Target sequence (chain): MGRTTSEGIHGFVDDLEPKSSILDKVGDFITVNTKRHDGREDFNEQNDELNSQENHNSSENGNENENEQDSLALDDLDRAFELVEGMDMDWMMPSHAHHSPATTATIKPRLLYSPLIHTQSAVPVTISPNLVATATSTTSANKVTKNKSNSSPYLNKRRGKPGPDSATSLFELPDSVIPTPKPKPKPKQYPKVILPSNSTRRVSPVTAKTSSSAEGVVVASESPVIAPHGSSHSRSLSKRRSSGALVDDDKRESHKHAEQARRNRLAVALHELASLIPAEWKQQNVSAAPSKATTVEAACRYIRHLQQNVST
Sequence = CTGTACGTTGGCATCCGCGTGCTTTAAAAGGGTGTA; result = 12200 a.u.
Sequence = TTGCGCTGCCCAATCCACGTGGAACAATCCTGTTCA; result = 17500 a.u.
Sequence = AAGCGAGGCGCAGATCTCGTGGTGAGTGATATAGTG; result = 8910 a.u.
Sequence = TGCGCAACAACTTGGCTAGTGGGTGTATGTCTAGAA; result = 4550 a.u.
Sequence = ACCTAGAAATCGAGTCACGTGACGAAAATAAACAAG; result = 14200 a.u.

Block 4 — method: protein binding microarray; molecule type: double-stranded DNA, one strand shown; matrix: in vitro; tested at: not given; relative to: not given; direction: higher = stronger binding; endpoint: E-score
Target: Histone acetyltransferase KAT6A, winged helix 2, GST fusion (KAT6A, Homo sapiens, UniProt Q92794, residues 85-181)
Notes: 8-mer, flanks averaged, mean of 2 arrays, mostly near background
Construct (chain): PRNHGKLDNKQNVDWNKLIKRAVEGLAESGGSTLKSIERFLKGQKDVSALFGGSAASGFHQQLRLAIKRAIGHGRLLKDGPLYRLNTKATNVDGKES
Sequence = AGATCCGC; result = 0.15
Sequence = ATTTAAAC; result = 0.00244
Sequence = CGCTAGGC; result = 0.0719
Sequence = AAACGTAG; result = -0.279
Sequence = ATGATTAA; result = 0.115
Sequence = ATTTTAGG; result = -0.0316
Sequence = CGGACTCA; result = -0.101
Sequence = AGCTAGAC; result = -0.0598

Block 5 — mode: inhibitor; tested at: 20 µM; endpoint: inhibition
Target: Replicase polyprotein 1ab, nsp13 helicase (rep, Severe acute respiratory syndrome coronavirus 2, UniProt P0DTD1)
SMILES = O=S(=O)(O)c1ccc(O)cc1; result = -2.88%
SMILES = N[C@@H]1CCCCN(c2c(F)cc3c(=O)c(C(=O)O)cn(C4CC4)c3c2Cl)C1; result = 9.77%
SMILES = CC(=O)OC[C@H]1O[C@@H](n2ccc(=O)[nH]c2=O)[C@H](OC(C)=O)[C@@H]1OC(C)=O; result = 10.5%
SMILES = C[C@H](Cc1cc2c(c(C(N)=O)c1)N(CCCO)CC2)NCCOc1ccccc1OCC(F)(F)F; result = 3.83%
SMILES = O=C(O)Cn1c(C(=O)Nc2nc(-c3ccccc3Cl)cs2)cc2ccccc21; result = 5.2%
SMILES = Cc1[nH]cnc1-c1ccc(Cl)cc1; result = 8.84%
SMILES = Cc1cnc(Nc2ccc(F)cc2Cl)nc1-c1c[nH]c(C(=O)N[C@H](CO)c2cccc(Cl)c2)c1; result = 11.7%
SMILES = Cc1cc(C)cc(C(=O)OC2C[C@H]3CC[C@@H](C2)N3C)c1 (stereo partly shown); result = 3.93%
SMILES = COC(=O)[C@H](c1ccccc1Cl)N1CCc2sccc2C1; result = 0.68%
SMILES = CCc1cccc(N(C)C(N)=Nc2cccc3ccccc23)c1; result = 5.37%
SMILES = CC(C)CN(C[C@@H](O)[C@H](Cc1ccccc1)N(C(=O)CNCc1cccc(F)c1)[C@H](C(N)=O)C(C)(C)C)S(=O)(=O)c1cccc(N)c1; result = 1.94%
SMILES = O=C(O)C1CSCN1 (stereo not shown); result = 9.17%
SMILES = CC(C)(C)c1ccc(S(=O)(=O)/C=C/C#N)cc1; result = 99.1%
SMILES = O=c1cc(-c2cccc3c2Sc2ccccc2S3)oc(N2CCOCC2)c1; result = 9.94%
SMILES = Cc1cc(O)c(C(=O)N[C@@H](C(=O)N[C@@H]2C(=O)N3C(C(=O)O)=C(CSc4nnnn4C)CS[C@H]23)c2ccc(O)cc2)cn1; result = 12.9%
SMILES = CNc1nc(C)nc(N[C@H]2CCC[C@@H](C(=O)NCc3ccc(C#N)cc3C(F)(F)F)C2)n1; result = 3.58%
SMILES = CN(C)CCC(c1ccccc1)c1ccccn1 (stereo not shown); result = 2.94%
SMILES = C[n+]1ccccc1/C=N/O; result = 0.32%
SMILES = CC(C)(O)CC(=O)O; result = 7.37%
SMILES = C[N+]1(C)[C@@H]2CC[C@H]1C[C@@H](OC(=O)C(CO)c1ccccc1)C2 (stereo partly shown); result = 0.81%
SMILES = Cl/C=C/C[N+]12CN3CN(CN(C3)C1)C2; result = -1.65%
SMILES = O=C(O)C(=O)c1cn(Cc2ccccc2)c2ccc(-c3ccc(OC(F)(F)F)cc3)cc12; result = 10.1%
SMILES = CCC(=N\O)/C(C)=C/c1ccc(F)cc1; result = 7.92%
SMILES = COc1cc(N)cn[n+]1-c1ccccc1; result = 0.82%
SMILES = CNCCc1cnc[nH]1; result = -0.67%

Block 6 — effect on: enzyme activity; mode: inhibitor; tested at: 20 µM; notes: hit confirmation, no DTT; endpoint: inhibition
Target: Replicase polyprotein 1ab, main protease (rep, Severe acute respiratory syndrome coronavirus 2, UniProt P0DTD1)
Compound = S=C=NCc1ccccc1; result = 76.3%
Compound = O=C1C=Cc2cc(Br)ccc2C1=O; result = 99.4%
Compound = COc1cccc2c1C(=O)c1c(O)c3c(c(O)c1C2=O)C[C@@](O)(/C(CO)=N/NC(=O)CCCCCN1C(=O)C=CC1=O)C[C@@H]3O[C@H]1C[C@H](N)[C@H](O)[C@H](C)O1; result = 101%

Excerpt of the above (block 4):
Sequence = CGCTAGGC; result = 0.0719
Sequence = AAACGTAG; result = -0.279
Sequence = ATGATTAA; result = 0.115
Sequence = ATTTTAGG; result = -0.0316
Sequence = CGGACTCA; result = -0.101
Sequence = AGCTAGAC; result = -0.0598
